Measured values pooled from the literature.
Numbered parts are unrelated; each lists some results of a single study. Values joined by “and” are separate records of one study, mostly repeats; a detail may differ.

Study 1 — SMILES: NC(N)=NC(=O)c1nc(Cl)c(N2CCCCCC2)nc1N; read-out: β-arrestin recruitment; mode: agonist; technique: PRESTO-Tango; tested at: 10 µM; relative to: untreated
target | fold over basal
Free fatty acid receptor 4 (FFAR4, Homo sapiens, UniProt Q5NUL3) | 2.23
Prokineticin receptor 1 (PROKR1, Homo sapiens, UniProt Q8TCW9) | 0.95
Alpha-1B adrenergic receptor (ADRA1B, Homo sapiens, UniProt P35368) | 0.8
Mas-related G-protein coupled receptor MRG (MAS1L, Homo sapiens, UniProt P35410) | 0.42
G-protein coupled receptor 55 (GPR55, Homo sapiens, UniProt Q9Y2T6) | 1.35
Adhesion G protein-coupled receptor D2 (ADGRD2, Homo sapiens, UniProt Q7Z7M1) | 0.81
G-prodeshotein coupled receptor 4 (GPR4, Homo sapiens, UniProt P46093) | 1.36
NPBWR2 (Homo sapiens, UniProt P48146) | 0.93
Orexin receptor type 2 (HCRTR2, Homo sapiens, UniProt O43614) | 1.67 fold
Prostacyclin receptor (PTGIR, Homo sapiens, UniProt P43119) | 0.82

Study 2 — read-out: enzyme activity; mode: inhibitor; tested at: 10 µM
Target: Calcium/calmodulin-dependent protein kinase type II subunit alpha (CAMK2A, Homo sapiens, UniProt Q9UQM7)
SMILES | inhibition
O=C1/C(=C/c2ccc(O)c(O)c2)COc2cc(O)ccc21 | -33%
C=C1CCC[C@]2(C)C[C@]3(O)OC(=O)C(C)=C3C[C@@H]12 | 3%
CN(C)CCC(c1ccc(Cl)cc1)c1ccccn1 (stereo not shown) | -2%
COc1ccc2cc3[n+](cc2c1O)CCc1cc2c(cc1-3)OCO2 | 45%
CCCCCCCCCCCCCCCCCCCCCCCC(=O)O | -2%
OCCN(CCO)c1nc(N2CCCCC2)c2nc(N(CCO)CCO)nc(N3CCCCC3)c2n1 | -8%
COc1c(OCCCN2CCOCC2)ccc2c1N=C(NC(=O)c1cnc(N)nc1)N1CCN=C21 | 0%
O=c1cc(-c2ccccc2)oc2cc(O)ccc12 | 2%
Cc1cc(NS(=O)(=O)c2ccc(N)cc2)nc(C)n1 | 3%
CC(=O)O[C@@H]1C[C@]23C4=CC[C@@]5(C)[C@H](C(=O)O)[C@@](C)([C@H](C)C(C)C)CC[C@]5(C)[C@H]4CC[C@H]2[C@@](C)(COC3O)[C@H]1O[C@@H]1O[C@H](CO)[C@@H](O)[C@H](O)[C@H]1O (stereo partly shown) | -8%

Study 3 — mode: inhibitor; tested at: 10 µM; relative to: control
Target: Diamine acetyltransferase 1 (Homo sapiens, UniProt P21673)
Residues (P21673 1-171): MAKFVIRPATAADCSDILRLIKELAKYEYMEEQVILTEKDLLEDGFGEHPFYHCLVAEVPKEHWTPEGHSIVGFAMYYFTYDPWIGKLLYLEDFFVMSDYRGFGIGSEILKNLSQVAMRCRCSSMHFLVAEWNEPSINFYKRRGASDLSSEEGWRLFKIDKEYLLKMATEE
SMILES | remaining activity [%]
O=C(/C=C/C=C/c1ccc2c(c1)OCO2)N1CCCCC1 | 108
CC1=C(/C=C/C(C)=C/C=C/C(C)=C/C=C/C=C(C)/C=C/C=C(C)/C=C/C2=C(C)C[C@@H](O)CC2(C)C)C(C)(C)C[C@H](O)C1 | 101
COc1ccc(C[C@H]2COC(=O)[C@@H]2Cc2ccc(O[C@@H]3O[C@H](CO)[C@@H](O)[C@H](O)[C@H]3O)c(OC)c2)cc1OC | 96.2
O=c1cc(-c2ccc(O)cc2)oc2c([C@@H]3O[C@H](CO)[C@@H](O)[C@H](O)[C@H]3O)c(O)c([C@@H]3O[C@H](CO)[C@@H](O)[C@H](O)[C@H]3O)c(O)c12 | 119
O=c1cc(-c2ccc(O)cc2)oc2c([C@@H]3OC[C@@H](O)[C@H](O)[C@H]3O)c(O)c([C@@H]3O[C@H](CO)[C@@H](O)[C@H](O)[C@H]3O)c(O)c12 | 100
CCCCC/C=C/C(=O)CCc1ccc(O)c(OC)c1 | 112
CC1(C)CCCC2(C)OC(=O)C=C12 (stereo not shown) | 102

Study 4 — mode: degrader; time: 24 h
SMILES: C[C@@H]1CN(c2ccc(-c3cc(C(=O)NCCOCCOCCOCCOCCNC(=O)/C=C/c4[nH]cc(C(=O)N[C@@H](CC(N)=O)c5ccc(F)c(Cl)c5)c4-c4ccc(Cl)cc4F)ccc3F)cc2NC(=O)c2c[nH]c(=O)cc2C(F)(F)F)C[C@H](C)N1C
WDR5: WD repeat-containing protein 5 (WDR5, Homo sapiens, UniProt P61964)
target | technique | measured | tested at | relative to | remaining protein level
WDR5/DCAF1 (Homo sapiens, UniProt P61964+Q9Y4B6) | HiBiT luminescence |  | 3800 nM |  | 72.5% and 69.6% and 78%
WDR5 | Jess capillary immunoassay | WDR5 over vinculin | 1821 nM | DMSO | 51.2% and 50.5% and 87.1% and 64.4% and 56.4% and 77.8%
WDR5 | Jess capillary immunoassay | WDR5 over vinculin | 777 nM | DMSO | 67.5% and 87% and 50.8% and 81.6% and 54% and 63.9%
WDR5 | Jess capillary immunoassay | WDR5 over vinculin | 4.69 nM | DMSO | 101% and 110% and 99.6% and 95% and 99.8% and 94.1%
WDR5 | Jess capillary immunoassay | WDR5 over vinculin | 60.3 nM | DMSO | 79.6% and 74.9% and 112% and 60.7% and 97.8% and 64.8%
WDR5 | Jess capillary immunoassay | WDR5 over vinculin | 10000 nM | DMSO | 95.1% and 48.2% and 85% and 39.9% and 64.7% and 81.3%

Study 5 — Compound: c1ccc(N2CCN(Cc3nc4ccccc4[nH]3)CC2)nc1; technique: competition with immobilised ligand; tested at: 1 µM
target | read-out | remaining binding [%]
Dual specificity mitogen-activated protein kinase kinase 7 (MAP2K7, Homo sapiens, UniProt O14733) | binding | 100
Megakaryocyte-associated tyrosine-protein kinase (MATK, Homo sapiens, UniProt P42679) | binding | 100
Protein-tyrosine kinase 6 (PTK6, Homo sapiens, UniProt Q13882) | binding | 100
Epithelial discoidin domain-containing receptor 1 (DDR1, Homo sapiens, UniProt Q08345) | cell-free assay | 100
Fibroblast growth factor receptor 2 (FGFR2, Homo sapiens, UniProt P21802) | cell-free assay | 96
Phosphatidylinositol 4,5-bisphosphate 3-kinase catalytic subunit alpha isoform (PIK3CA, Homo sapiens, UniProt P42336, H1047Y) | cell-free assay | 79
Tyrosine-protein kinase Fer (FER, Homo sapiens, UniProt P16591) | binding | 100
Receptor-type tyrosine-protein kinase FLT3 (FLT3, Homo sapiens, UniProt P36888, R834Q) | binding | 100
Receptor tyrosine-protein kinase erbB-3 (ERBB3, Homo sapiens, UniProt P21860) | binding | 91
Mast/stem cell growth factor receptor Kit (KIT, Homo sapiens, UniProt P10721, A829P) | binding | 100
Dual specificity tyrosine-phosphorylation-regulated kinase 1A (DYRK1A, Homo sapiens, UniProt Q13627) | cell-free assay | 100
Ribosomal protein S6 kinase alpha-6, C-terminal kinase domain (RPS6KA6, Homo sapiens, UniProt Q9UK32) | binding | 100
Tyrosine-protein kinase ABL1, phosphorylated (ABL1, Homo sapiens, UniProt P00519, H396P) | binding | 100
Dual specificity protein kinase TTK (TTK, Homo sapiens, UniProt P33981) | binding | 100
Cyclin-dependent kinase 5 (CDK5, Homo sapiens, UniProt Q00535) | binding | 100
Homeodomain-interacting protein kinase 2 (HIPK2, Homo sapiens, UniProt Q9H2X6) | binding | 26
Tyrosine-protein kinase Yes (YES1, Homo sapiens, UniProt P07947) | cell-free assay | 100
Mitotic checkpoint serine/threonine-protein kinase BUB1 (BUB1, Homo sapiens, UniProt O43683) | binding | 100
Mitogen-activated protein kinase kinase kinase 12 (MAP3K12, Homo sapiens, UniProt Q12852) | binding | 97
Tyrosine-protein kinase JAK3, JH1 (JAK3, Homo sapiens, UniProt P52333) | binding | 100
Phosphatidylinositol 4-phosphate 3-kinase C2 domain-containing subunit beta (PIK3C2B, Homo sapiens, UniProt O00750) | cell-free assay | 85
Calcium/calmodulin-dependent protein kinase type II subunit alpha (CAMK2A, Homo sapiens, UniProt Q9UQM7) | cell-free assay | 100
Ribosomal protein S6 kinase alpha-3, N-terminal kinase domain (RPS6KA3, Homo sapiens, UniProt P51812) | binding | 100
Phosphatidylinositol 4-phosphate 5-kinase type-1 gamma (PIP5K1C, Homo sapiens, UniProt O60331) | binding | 93
Mast/stem cell growth factor receptor Kit (KIT, Homo sapiens, UniProt P10721, T670I/V559D) | binding | 95

Excerpt of the above (study 5):
target | read-out | remaining binding [%]
Mitogen-activated protein kinase kinase kinase 12 (MAP3K12, Homo sapiens, UniProt Q12852) | binding | 97
Ribosomal protein S6 kinase alpha-3, N-terminal kinase domain (RPS6KA3, Homo sapiens, UniProt P51812) | binding | 100
Phosphatidylinositol 4-phosphate 3-kinase C2 domain-containing subunit beta (PIK3C2B, Homo sapiens, UniProt O00750) | cell-free assay | 85
Cyclin-dependent kinase 5 (CDK5, Homo sapiens, UniProt Q00535) | binding | 100
Mast/stem cell growth factor receptor Kit (KIT, Homo sapiens, UniProt P10721, T670I/V559D) | binding | 95
Tyrosine-protein kinase Yes (YES1, Homo sapiens, UniProt P07947) | cell-free assay | 100
Phosphatidylinositol 4-phosphate 5-kinase type-1 gamma (PIP5K1C, Homo sapiens, UniProt O60331) | binding | 93
